Measurements gathered from unrelated publications.
Every numbered part comes from another study and shows a few of its results, in no order. Values joined by “and” are separate records of one study, mostly repeats; a detail may differ. Positions count from the first letter of the parent shown.
Chain of UniProt P15056 (whole entry, unmodified, looked up): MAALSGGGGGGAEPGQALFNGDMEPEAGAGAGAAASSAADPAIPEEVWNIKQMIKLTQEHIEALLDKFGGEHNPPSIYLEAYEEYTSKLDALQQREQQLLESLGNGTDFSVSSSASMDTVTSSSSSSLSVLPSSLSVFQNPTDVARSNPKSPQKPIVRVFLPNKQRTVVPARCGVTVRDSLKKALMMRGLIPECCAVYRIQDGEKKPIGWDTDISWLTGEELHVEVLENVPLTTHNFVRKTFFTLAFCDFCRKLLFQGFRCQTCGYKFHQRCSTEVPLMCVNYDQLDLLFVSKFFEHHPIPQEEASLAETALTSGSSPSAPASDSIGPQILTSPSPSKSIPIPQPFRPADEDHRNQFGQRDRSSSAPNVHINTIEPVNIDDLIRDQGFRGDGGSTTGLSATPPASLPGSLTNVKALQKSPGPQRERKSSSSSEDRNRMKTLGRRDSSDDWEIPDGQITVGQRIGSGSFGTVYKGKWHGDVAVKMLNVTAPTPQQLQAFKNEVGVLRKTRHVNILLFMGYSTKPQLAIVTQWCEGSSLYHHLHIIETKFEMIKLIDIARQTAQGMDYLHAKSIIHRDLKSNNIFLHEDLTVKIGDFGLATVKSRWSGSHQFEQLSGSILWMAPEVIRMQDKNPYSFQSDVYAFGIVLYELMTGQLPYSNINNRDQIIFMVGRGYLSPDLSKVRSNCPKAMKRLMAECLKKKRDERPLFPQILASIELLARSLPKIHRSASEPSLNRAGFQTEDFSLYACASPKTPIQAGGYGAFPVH
Chain of UniProt P42336 (whole entry, unmodified, looked up): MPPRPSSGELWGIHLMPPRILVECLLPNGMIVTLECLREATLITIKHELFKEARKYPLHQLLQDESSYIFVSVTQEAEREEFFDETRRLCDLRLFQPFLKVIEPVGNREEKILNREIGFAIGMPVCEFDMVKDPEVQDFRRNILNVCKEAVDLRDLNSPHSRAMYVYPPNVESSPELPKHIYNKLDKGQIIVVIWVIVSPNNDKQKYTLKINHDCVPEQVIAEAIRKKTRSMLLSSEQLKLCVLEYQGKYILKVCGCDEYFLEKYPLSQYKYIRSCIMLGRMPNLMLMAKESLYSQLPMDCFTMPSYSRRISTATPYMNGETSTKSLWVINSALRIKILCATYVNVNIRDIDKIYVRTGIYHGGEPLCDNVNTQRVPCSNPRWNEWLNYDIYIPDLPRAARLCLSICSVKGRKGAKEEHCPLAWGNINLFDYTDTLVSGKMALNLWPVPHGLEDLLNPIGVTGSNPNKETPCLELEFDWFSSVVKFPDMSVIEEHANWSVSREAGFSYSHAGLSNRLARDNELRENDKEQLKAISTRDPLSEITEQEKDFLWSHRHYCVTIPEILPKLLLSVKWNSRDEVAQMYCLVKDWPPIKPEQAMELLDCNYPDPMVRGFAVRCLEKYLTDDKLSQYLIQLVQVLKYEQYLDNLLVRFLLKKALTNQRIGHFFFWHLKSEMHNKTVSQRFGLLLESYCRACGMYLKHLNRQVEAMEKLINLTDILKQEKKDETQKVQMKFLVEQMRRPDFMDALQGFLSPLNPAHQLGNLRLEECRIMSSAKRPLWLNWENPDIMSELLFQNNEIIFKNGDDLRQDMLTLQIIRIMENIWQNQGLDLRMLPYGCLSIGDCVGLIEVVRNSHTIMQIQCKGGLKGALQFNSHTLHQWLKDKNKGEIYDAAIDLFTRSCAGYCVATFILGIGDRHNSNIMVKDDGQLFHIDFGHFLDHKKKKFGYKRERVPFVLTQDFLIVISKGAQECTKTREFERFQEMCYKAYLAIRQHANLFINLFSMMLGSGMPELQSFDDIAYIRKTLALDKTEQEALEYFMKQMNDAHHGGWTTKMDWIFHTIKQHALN
Chain of UniProt Q6P2M8 (whole entry, looked up): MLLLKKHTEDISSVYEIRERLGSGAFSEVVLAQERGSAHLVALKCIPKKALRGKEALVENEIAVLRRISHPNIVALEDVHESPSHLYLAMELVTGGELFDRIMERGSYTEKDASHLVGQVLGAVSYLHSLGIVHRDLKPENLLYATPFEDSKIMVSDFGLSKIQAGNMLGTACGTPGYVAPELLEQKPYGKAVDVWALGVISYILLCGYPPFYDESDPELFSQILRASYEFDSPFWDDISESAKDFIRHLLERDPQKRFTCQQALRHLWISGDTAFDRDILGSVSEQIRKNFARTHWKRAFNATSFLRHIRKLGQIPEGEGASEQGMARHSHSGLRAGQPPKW

Series 1
SMILES: CS(=O)(=O)NCC[C@H](NC(=O)c1cncc2c1cnn2-c1ccc(F)cc1)c1ccnc(S(C)(=O)=O)c1
Method: competition with immobilised ligand
Tested at: 1 µM
target	effect on	remaining binding [%]
Glycogen synthase kinase-3 alpha (GSK3A, Homo sapiens, UniProt P49840)	cell-free assay	100
LIM domain kinase 1 (LIMK1, Homo sapiens, UniProt P53667)	cell-free assay	100
Serine/threonine-protein kinase B-raf (BRAF, Homo sapiens, UniProt P15056, V600E)	cell-free assay	100
Mitotic checkpoint serine/threonine-protein kinase BUB1 (BUB1, Homo sapiens, UniProt O43683)	cell-free assay	100
Calcium/calmodulin-dependent protein kinase type 1B (PNCK, Homo sapiens, UniProt Q6P2M8)	cell-free assay	85
Receptor-interacting serine/threonine-protein kinase 2 (RIPK2, Homo sapiens, UniProt O43353)	cell-free assay	100
Tyrosine-protein kinase Fes/Fps (FES, Homo sapiens, UniProt P07332)	cell-free assay	100
Membrane-associated tyrosine- and threonine-specific cdc2-inhibitory kinase (PKMYT1, Homo sapiens, UniProt Q99640)	cell-free assay	84
Serine/threonine-protein kinase Sgk1 (SGK1, Homo sapiens, UniProt O00141)	cell-free assay	100
Tyrosine-protein kinase Tec (TEC, Homo sapiens, UniProt P42680)	binding	96
Mitogen-activated protein kinase 6 (MAPK6, Homo sapiens, UniProt Q16659)	cell-free assay	100
Phosphatidylinositol 4,5-bisphosphate 3-kinase catalytic subunit alpha isoform (PIK3CA, Homo sapiens, UniProt P42336, E545A)	cell-free assay	100
Serine/threonine-protein kinase B-raf (BRAF, Homo sapiens, UniProt P15056)	cell-free assay	79
Phosphatidylinositol 4,5-bisphosphate 3-kinase catalytic subunit beta isoform (PIK3CB, Homo sapiens, UniProt P42338)	cell-free assay	93
Mitogen-activated protein kinase 4 (MAPK4, Homo sapiens, UniProt P31152)	cell-free assay	100
Ankyrin repeat and protein kinase domain-containing protein 1 (ANKK1, Homo sapiens, UniProt Q8NFD2)	cell-free assay	100
Beta-adrenergic receptor kinase 1 (GRK2, Homo sapiens, UniProt P25098)	cell-free assay	100

Series 2
Target: CREB3, bZIP domain (human)
Method: DHFR protein complementation
Matrix: yeast
Notes: single substitutions, most at no-binding floor
Reference: wild-type JUN-FOS pair
Reading: higher = stronger binding
Parent: JUN, bZIP domain (human); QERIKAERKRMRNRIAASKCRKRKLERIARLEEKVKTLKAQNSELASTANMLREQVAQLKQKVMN; partner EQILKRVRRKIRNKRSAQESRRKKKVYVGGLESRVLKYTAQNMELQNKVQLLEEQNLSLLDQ
Variant	binding fitness [natural log]
L45D	-1.46
E54Y	-1.48
L45W	-1.54
L52K	-1.57
T37V	-1.42
A40Y	-1.41
I28S	-1.52
M51H	-1.26

Single results of other studies
POLQ ATPase domain: DNA polymerase theta, ATPase domain (POLQ, Homo sapiens, UniProt O75417)
Chain of UniProt O75417 (whole entry, unmodified, looked up): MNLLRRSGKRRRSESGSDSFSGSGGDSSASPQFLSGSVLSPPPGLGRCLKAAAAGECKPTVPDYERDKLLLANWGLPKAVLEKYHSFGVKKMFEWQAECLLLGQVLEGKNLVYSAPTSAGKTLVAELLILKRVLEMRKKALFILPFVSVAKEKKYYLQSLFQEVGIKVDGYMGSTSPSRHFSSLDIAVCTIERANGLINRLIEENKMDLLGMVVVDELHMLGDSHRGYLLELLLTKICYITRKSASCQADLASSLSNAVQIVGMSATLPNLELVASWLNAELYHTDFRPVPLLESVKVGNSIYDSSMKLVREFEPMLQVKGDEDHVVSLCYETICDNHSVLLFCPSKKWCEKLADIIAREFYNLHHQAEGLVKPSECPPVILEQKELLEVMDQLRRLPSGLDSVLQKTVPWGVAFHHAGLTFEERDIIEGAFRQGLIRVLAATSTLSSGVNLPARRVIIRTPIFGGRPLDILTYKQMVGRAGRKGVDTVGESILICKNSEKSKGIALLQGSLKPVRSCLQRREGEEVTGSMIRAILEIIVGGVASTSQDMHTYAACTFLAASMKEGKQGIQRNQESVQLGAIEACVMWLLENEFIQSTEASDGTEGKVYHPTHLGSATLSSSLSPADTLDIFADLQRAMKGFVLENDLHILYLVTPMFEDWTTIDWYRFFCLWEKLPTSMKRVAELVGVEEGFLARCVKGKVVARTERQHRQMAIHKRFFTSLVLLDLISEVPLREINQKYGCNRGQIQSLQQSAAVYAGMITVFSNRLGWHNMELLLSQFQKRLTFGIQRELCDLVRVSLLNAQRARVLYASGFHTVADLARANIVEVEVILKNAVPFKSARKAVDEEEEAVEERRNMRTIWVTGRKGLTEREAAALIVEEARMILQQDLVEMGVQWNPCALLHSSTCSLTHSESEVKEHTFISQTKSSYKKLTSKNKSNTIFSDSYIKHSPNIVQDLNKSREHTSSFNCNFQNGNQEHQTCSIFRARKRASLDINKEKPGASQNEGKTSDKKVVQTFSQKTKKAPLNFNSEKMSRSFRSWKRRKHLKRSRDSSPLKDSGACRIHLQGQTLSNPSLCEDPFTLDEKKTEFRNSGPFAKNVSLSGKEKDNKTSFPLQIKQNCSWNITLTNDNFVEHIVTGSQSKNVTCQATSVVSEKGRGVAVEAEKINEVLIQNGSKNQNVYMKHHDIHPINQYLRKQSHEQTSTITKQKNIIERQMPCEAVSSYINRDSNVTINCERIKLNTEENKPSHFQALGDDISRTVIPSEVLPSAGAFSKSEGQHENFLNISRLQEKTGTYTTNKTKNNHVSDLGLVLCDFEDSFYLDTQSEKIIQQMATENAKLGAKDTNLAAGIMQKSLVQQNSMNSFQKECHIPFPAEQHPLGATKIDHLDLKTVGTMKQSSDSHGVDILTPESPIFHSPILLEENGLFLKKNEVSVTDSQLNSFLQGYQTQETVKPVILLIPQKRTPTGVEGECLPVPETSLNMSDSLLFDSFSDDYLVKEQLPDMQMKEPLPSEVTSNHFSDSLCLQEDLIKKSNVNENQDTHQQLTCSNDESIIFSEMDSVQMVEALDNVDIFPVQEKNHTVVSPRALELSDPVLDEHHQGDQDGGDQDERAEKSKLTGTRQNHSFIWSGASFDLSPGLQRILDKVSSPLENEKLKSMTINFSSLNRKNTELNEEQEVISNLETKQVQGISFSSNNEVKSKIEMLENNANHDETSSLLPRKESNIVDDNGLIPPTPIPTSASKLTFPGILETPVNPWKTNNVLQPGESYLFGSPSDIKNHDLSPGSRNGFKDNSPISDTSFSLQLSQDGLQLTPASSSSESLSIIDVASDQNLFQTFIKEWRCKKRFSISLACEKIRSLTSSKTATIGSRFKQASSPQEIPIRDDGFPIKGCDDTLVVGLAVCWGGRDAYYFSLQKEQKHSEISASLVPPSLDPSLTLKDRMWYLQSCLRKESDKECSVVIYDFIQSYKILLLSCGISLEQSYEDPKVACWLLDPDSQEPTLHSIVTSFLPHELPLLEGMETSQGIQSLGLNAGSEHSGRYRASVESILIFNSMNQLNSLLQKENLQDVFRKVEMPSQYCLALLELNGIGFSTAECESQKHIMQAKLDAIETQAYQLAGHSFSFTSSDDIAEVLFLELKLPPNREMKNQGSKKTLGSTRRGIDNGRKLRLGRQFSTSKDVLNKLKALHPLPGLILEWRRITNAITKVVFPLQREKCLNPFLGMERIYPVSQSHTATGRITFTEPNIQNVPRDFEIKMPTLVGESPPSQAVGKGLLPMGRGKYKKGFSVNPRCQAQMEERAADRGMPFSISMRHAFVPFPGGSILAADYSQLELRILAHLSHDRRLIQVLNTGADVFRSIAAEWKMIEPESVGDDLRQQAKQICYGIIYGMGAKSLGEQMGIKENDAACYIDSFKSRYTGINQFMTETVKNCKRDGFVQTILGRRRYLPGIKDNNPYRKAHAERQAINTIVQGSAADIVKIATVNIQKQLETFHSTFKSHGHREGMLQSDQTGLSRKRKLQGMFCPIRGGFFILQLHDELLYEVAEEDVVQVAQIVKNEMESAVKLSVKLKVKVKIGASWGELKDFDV
SMILES	target or system	assay	system	conditions	scale	measurement	result
Nc1nc(OCc2cc(Br)cs2)c2[nH]cnc2n1	mouse MPNST tumor cells	high-content immunofluorescence imaging, refers to: nuclear SOX9	–	10 µM, 12 h, mean of 2 replicates	reference: DMSO control, higher = more nuclear SOX9	nuclear SOX9 intensity	105 % of DMSO
O=C1CCC(N2Cc3cc(C4CCN(Cc5ccccc5)CC4)ccc3C2=O)C(=O)N1 (centres unmarked)	human Treg:Teff co-culture	–	–	concentration not given, Treg suppression	–	proliferating CD8+ Teff cells	87.5% and 64.5% and 86.9% and 45% and 89.6% and 62.5%
O[C@@H](c1cc(C(F)(F)F)nc2c(C(F)(F)F)cccc12)[C@H]1CCCCN1	A-375	–	–	100 µM, 60 h	–	viability	102%
Cc1[nH]nc2ccc(-c3cncc(OC[C@@H](N)Cc4ccccc4)c3)cc12	POLQ ATPase domain	enzyme activity, inhibitor	–	77 µM	reference: untreated	remaining activity	109%
CCOc1ccc(Nc2c3c(nc4ccccc24)CCC3)cc1	Leishmania donovani	parasite killing	DD8, promastigotes	0.66 µM, 72 h	–	inhibition	24% and 20%
O=C(COc1ccc(Cl)cc1)NC1CCC(NC(=O)COc2ccc(Cl)cc2)CC1 (centres unmarked)	HEK293T ATF4-firefly luciferase reporter	integrated stress response, refers to: ATF4	–	concentration not given	reference: DMSO	reporter signal	76.7% and 65.6% and 76.4% and 67% and 64.3% and 72.6%
Brc1ccc(-c2c[nH]c(CNc3nncn3-c3ccccc3)n2)cc1	–	–	human, microsomes or S9	2 µM, 0.5 h	–	remaining compound	50.9%
Nc1ncnc2c1c(-c1ccc(Oc3ccccc3)cc1)cn2C1CCCC1	POLQ ATPase domain	enzyme activity, inhibitor	–	77 µM	reference: untreated	remaining activity	101%
C#CCN[C@@H]1CCc2ccccc21	HaCaT	–	–	100 µM, 60 h	–	viability	141%
Cl.O.O=C1N(c2ccccc2)c2ccccc2C1(Cc1ccncc1)Cc1ccncc1	Sarcocystis neurona	parasite growth	–	concentration not given, first screen	reference: untreated	log2 fold change	0.09
c1ccc(Oc2ccc(Nc3c4c(nc5ccccc35)CCC4)cc2)cc1	Leishmania donovani	parasite killing	DD8, intracellular amastigotes	20 µM, 24 h	–	inhibition	105% and 100%
CC(C)n1cnc(-c2ccc(F)cc2)c1-c1ncc(C(=O)Nc2ccc(N3CCN(C)CC3)cc2)[nH]1	–	phase 2a trial	patients with idiopathic pulmonary fibrosis	dose not given, atopic dermatitis, grade 4, all arms	–	patients with TEAE	0%
CN(C(=O)c1ccn2ncc(-c3ccc(C(N)=O)cc3)c2c1)c1ccc(C#N)cn1	Cryptosporidium parvum	time-kill	HCT-8, nanoluciferase-expressing	20 µM, 8 h	reference: DMSO control	luminescence remaining	82.2% and 96.3%
